Results of several laboratories.
Compare with care: the assays were run in different laboratories. “And” joins repeats or separate records; there may be more than shown. ± marks the error that the study gave.

CC(C)C[C@@H](N)C(=O)N[C@H](Cc1ccccc1)C(=O)N[C@H](Cc1ccccc1)C(=O)N[C@H](C)C(=O)N[C@H](CCC(=O)O)C(N)=O
viability (NGF-differentiated PC-12 neurons; 40 µM, 24 h; baseline: untreated): 65.3%

Oc1ccc(C(c2ccc(O)cc2)(C(F)(F)F)C(F)(F)F)cc1
necrotic cells (HepG2 spheroids; annexin V-FITC/PI flow cytometry; 0.10 µM, 96 h): 52.6 ± 9.63%

Fc1cccc(Nc2ccc3ncc(OCC4CCNCC4)nc3c2)c1
EC50 (MOLM-13; cell growth, XTT; 7 d): 8.6 µM

CC[C@@]1(O)C(=O)OCc2c1cc1n(c2=O)Cc2cc3c(CN(C)C)c(O)ccc3nc2-1
maximum inhibition (human coronavirus OC43; virus-induced cell killing; MRC-5; maximum over 10 doses): 0%

O=S(=O)(c1ccc(O)cc1)c1ccc(O)cc1
necrotic cells (HepG2 spheroids; annexin V-FITC/PI flow cytometry; 40 µM, 24 h): 7.52 ± 2.4%

CN(CCC=C1c2ccccc2CCc2ccccc21)N=O
relative survival (TK6; 1.25 µM, 4 h, together with: hamster liver S9; baseline: vehicle): 103%

Cc1ccc(C)c(Nc2cc(C(=O)NCCCN(C)C3CCCCC3)c3ccccc3n2)c1
cytotoxicity efficacy (Vero-E6; CellTiter-Glo ATP; concentration not given, 72 h, retest 8-point duplicates; baseline: DMSO 0%, hyamine -100%, more negative, more toxic): -41.8%

Clc1cccc(-c2nn3c(Cn4nnc5ccccc54)nnc3s2)c1
CC50 (HEp-2; cytotoxicity): > 100 µM

CC(C)C[C@@H](N)C(=O)N1CCC[C@@H]1C(=O)N[C@H](Cc1ccccc1)C(=O)N[C@H](Cc1ccccc1)C(=O)N[C@H](C)C(=O)N[C@H](CCC(=O)O)C(N)=O
viability (NGF-differentiated PC-12 neurons; 80 µM, 24 h; baseline: untreated): 95.7%

Cc1cnc(Nc2ccnc3ccc(-c4ccc(S(=O)(=O)N5CCOCC5)cc4)cc23)s1
TC50 (NIH 3T3; cytotoxicity, PrestoBlue; 96 h, 2% FBS): > 20 µM

Brc1ccc(-c2nn3c(Cn4nnc5ccccc54)nnc3s2)cc1
CC50 (HEp-2; cytotoxicity): > 100 µM

Nc1nc(=S)c2[nH]cnc2[nH]1
maximum inhibition (human coronavirus OC43; virus-induced cell killing; MRC-5; screen): 56.9%

COc1ccc(-c2cn3c(n2)sc2cc(C(=O)NCCCN4CCCCCC4)ccc23)cc1
cytotoxicity efficacy (Vero-E6; CellTiter-Glo ATP; concentration not given, 72 h, retest 8-point duplicates; baseline: DMSO 0%, hyamine -100%, more negative, more toxic): -32.3%

Cc1cc(O)c2c(=O)c3c(O)cc(O)c4c5c(O)cc(O)c6c(=O)c7c(O)cc(CO)c8c1c2c(c34)c(c65)c78
CYP1A1 induction (BEAS-2B; enzyme activity, inducer, fluorogenic substrate imaging; 10 µM, 24 h; baseline: control): 1 fold

Fc1cccc(COc2ccc(Nc3ccnc4cc(-c5cccc(N6CCOCC6)c5)ccc34)cc2Cl)c1
TC50 (NIH 3T3; PrestoBlue; 2% FBS medium; 96 h): 11 µM

O=S(=O)(c1ccc(-c2ccc3nccc(Nc4ccc5[nH]nnc5c4)c3c2)cc1)N1CCOCC1
TC50 (NIH 3T3; cytotoxicity, PrestoBlue; 96 h, 2% FBS): > 20 µM

CCCCCCCCCCCC[N+](C)(C)Cc1ccccc1.[Br-]
cell viability (PC-12; CCK-8; 10 µM, dark or illumination): ~40%

CC(C)C[C@H](NC(=O)[C@H](C)NC(=O)[C@@H](NC(=O)[C@H](CCCNC(=N)N)NC(=O)[C@H](CC(C)C)NC(=O)[C@H](Cc1c[nH]c2ccccc12)NC(=O)[C@@H]1CCCN1C(=O)[C@@H](N)CCCCN)C(C)C)C(=O)N[C@@H](CS)C(=O)N1CCC[C@H]1C(=O)NCC(=O)O
viability (HEp-2; WST-1; 8 µM, 24 h): 101% and 92.4% and 89.4%

CCc1ccc(Sc2cc(C(=O)NCCCN3CCC(C)CC3)c3ccccc3n2)cc1
maximum response (Vero-E6; CellTiter-Glo ATP; 72 h, retest 8-point duplicates; baseline: DMSO 0%, hyamine -100%, more negative, more toxic): -31.6%

CN(CC[C@H](Oc1cccc2ccccc12)c1cccs1)N=O
relative survival (TK6; 1.25 µM, 4 h, together with: hamster liver S9; baseline: vehicle): 60%

NCCc1ccc(O)cc1
host cell number (HCT-8 infected with Cryptosporidium parvum; Hoechst nuclei count; 1 mM, 24 h; baseline: PBS): 1.05 ± 0.036

CC(C)(Nc1nc(N2CCNCC2)nc2ccccc12)c1ccccc1
maximum response (Vero-E6; CellTiter-Glo ATP; 72 h, second round 5-point; baseline: DMSO 0%, hyamine -100%, more negative, more toxic): -4.05%

CC(C)C[C@@H](NC(=O)[C@H](N)CCCCN)C(=O)N[C@H](CC(C)C)C(=O)N[C@H](Cc1ccccc1)C(=O)N[C@H](Cc1ccccc1)C(=O)N[C@H](C)C(N)=O
viability (NGF-differentiated PC-12 neurons; 10 µM, 24 h; baseline: untreated): 98.7%

CCCCN(CCCC)CCCNC(=O)c1cc(-c2ccc(Cl)s2)nc2ccccc12
cytotoxicity efficacy (Vero-E6; CellTiter-Glo ATP; concentration not given, 72 h, second round 5-point; baseline: DMSO 0%, hyamine -100%, more negative, more toxic): 0%

Cc1cc(C(C)(C)c2ccc(O)c(C)c2)ccc1O
viable cells (HepG2 spheroids, dissociated; annexin V-FITC/PI flow cytometry; 1 µM, 24 h): 72.7 ± 2.93%

Brc1ccc(CCNC2CCCc3c2[nH]c2ccc(-c4ccccc4)cc32)cc1 (stereo not drawn)
non-viable cells (A549; 50 µM, 23 h): 95.2 ± 4.8%

COc1ccc(Nc2nn3c(-c4ccccc4)ccnc3c2C(=O)Nc2ccccc2)cc1
viability (WI-38; MTT; serum-free medium; 250.00 µg/mL, 48 h): 55.4%

CC(C)C[C@@H](NC(=O)[C@H](N)CCCCN)C(=O)N[C@@H](C(=O)N[C@H](Cc1ccccc1)C(=O)N[C@H](Cc1ccccc1)C(N)=O)C(C)C
viability (NGF-differentiated PC-12 neurons; 10 µM, 24 h; baseline: untreated): 100%

CCN(N=O)C(N)=O
micronucleated cells (HepaRG; maximum tested, 24 (unit not given)): 2%

CC(C)C[C@@H](N)C(=O)N[C@H](CC(C)C)C(=O)N[C@H](Cc1ccccc1)C(=O)N[C@H](Cc1ccccc1)C(=O)N[C@H](C)C(N)=O
viability (NGF-differentiated PC-12 neurons; 10 µM, 24 h; baseline: untreated): 92.5%

CC(=O)O[C@H]1CC[C@]2(C)[C@H]3CC[C@]4(C)Oc5cc(C)oc(=O)c5C[C@H]4[C@]3(C)CC[C@H]2C1(C)C
cytotoxicity (Calu-3; 50 µM): 0%

CC(C)C[C@@H](NC(=O)[C@H](N)CCCCN)C(=O)N[C@H](CC(C)C)C(=O)N[C@H](Cc1ccccc1)C(=O)N[C@H](Cc1ccccc1)C(=O)N[C@H](C)C(=O)N[C@H](CCC(=O)O)C(N)=O
viability (NGF-differentiated PC-12 neurons; 5 µM, 24 h; baseline: untreated): 100%

O=S(=O)(c1ccc(-c2ccc3ncccc3c2)cc1)N1CCOCC1
TC50 (NIH 3T3; cytotoxicity, PrestoBlue; 96 h, 2% FBS): > 20 µM

CC(c1ccccc1)(c1ccc(O)cc1)c1ccc(O)cc1
necrotic cells (HepG2 spheroids; annexin V-FITC/PI flow cytometry; 10 µM, 24 h): 7.84 ± 2.36%

C=CC(=O)Nc1ccccc1CN(C(=O)Nc1cccc(C(F)(F)F)c1)C1CCN(C(C)CCC)CC1 (stereo not drawn)
LD50 (HCC95 cells; CellTiter-Glo): 36.4 µM

COc1cccc2c1C(=O)c1c(O)c3c(c(O)c1C2=O)C[C@@](O)(C(=O)CO)C[C@@H]3O[C@H]1C[C@H](N)[C@H](O)[C@H](C)O1
cytotoxicity (human gingival fibroblasts; MTS; 5 µM): not toxic

Cc1nc2ccccc2n1Cc1nnc2sc(-c3ccc(F)c(Cl)c3)nn12
CC50 (HEp-2; cytotoxicity): 7.4 µM

CN1CCCN(S(=O)(=O)c2ccc(-c3ccc4ccnc(Nc5ccc(OCc6cccc(F)c6)c(Cl)c5)c4c3)cc2)CC1
TC50 (NIH 3T3; PrestoBlue; 2% FBS medium; 96 h): 25 µM

CC(C)C[C@@H](NC(=O)[C@H](N)CCCCN)C(=O)N1CCC[C@@H]1C(=O)N[C@H](Cc1ccccc1)C(=O)N[C@H](Cc1ccccc1)C(=O)N[C@H](C)C(=O)N[C@H](CCC(=O)O)C(N)=O
viability (NGF-differentiated PC-12 neurons; 80 µM, 24 h; baseline: untreated): 85.1%

O=S(=O)(c1ccc(-c2ccc3nccc(Nc4ccncc4)c3c2)cc1)N1CCOCC1
TC50 (NIH 3T3; cytotoxicity, PrestoBlue; 96 h, 2% FBS): > 20 µM

COc1ccc(Cl)cc1NC(=O)CSc1nc2ccccc2nc1N1CCCCC1
maximum response (Vero-E6; CellTiter-Glo ATP; 72 h, first round 5-point; baseline: DMSO 0%, hyamine -100%, more negative, more toxic): -1.77%

CN(C)c1ccc(C(Nc2nc3c(-c4ccc([N+](=O)[O-])cc4)nn(-c4ccccc4)c3s2)P(=O)(Oc2ccccc2)Oc2ccccc2)cc1 (stereo not drawn)
viability (BNL mouse liver cells; SRB; 0.01 µM, 10% fetal bovine serum): 99.8%

O=C(NCc1ccccc1Cl)C1CCCN(Cc2cccc(-c3ccc(F)cc3F)c2)C1 (stereo not drawn)
cytotoxicity efficacy (Vero-E6; CellTiter-Glo ATP; concentration not given, 72 h, first round 5-point; baseline: DMSO 0%, hyamine -100%, more negative, more toxic): -11.4%

CC[C@H]1CN2CCc3cc(OC)c(OC)cc3[C@@H]2C[C@@H]1C[C@H]1NCCc2cc(OC)c(OC)cc21
selectivity index (differentiated THP-1; 72 h; baseline: THP-1 CC50 over EC50): 8

[Cl][Cd][Cl]
relative survival (HepaRG; maximum tested, 24 h, 72 h recovery; baseline: vehicle): 67%

CCCCCCCCCCCCOS(=O)(=O)[O-].[Na+]
cytotoxicity (THP-1; MTT; 50 µM): not toxic

Cc1ccc(N)cc1N
micronucleated cells (HepaRG; maximum tested, 24 (unit not given)): 0.4%

CC(C)C[C@@H](N)C(=O)N[C@H](Cc1ccccc1)C(=O)N[C@H](Cc1ccccc1)C(=O)N[C@H](C)C(N)=O
viability (NGF-differentiated PC-12 neurons; 20 µM, 24 h; baseline: untreated): 96.5%

CN(C)N=O
micronucleated cells (HepaRG; maximum tested): 2.2%

COc1ccc(CCNC(=O)c2cc(Nc3ccccc3)nc3ccccc23)cc1OC
maximum response (Vero-E6; CellTiter-Glo ATP; 72 h, first round 5-point; baseline: DMSO 0%, hyamine -100%, more negative, more toxic): -5.27%

O=c1ccc2ccccc2o1
chance response (NHEK; ER stress, refers to: ATF4; concentration not given, 6 h): 1.87%

A few entries again:
Cc1cnc(Nc2ccnc3ccc(-c4ccc(S(=O)(=O)N5CCOCC5)cc4)cc23)s1
TC50 (NIH 3T3; cytotoxicity, PrestoBlue; 96 h, 2% FBS): > 20 µM

Brc1ccc(-c2nn3c(Cn4nnc5ccccc54)nnc3s2)cc1
CC50 (HEp-2; cytotoxicity): > 100 µM

Nc1nc(=S)c2[nH]cnc2[nH]1
maximum inhibition (human coronavirus OC43; virus-induced cell killing; MRC-5; screen): 56.9%

COc1ccc(-c2cn3c(n2)sc2cc(C(=O)NCCCN4CCCCCC4)ccc23)cc1
cytotoxicity efficacy (Vero-E6; CellTiter-Glo ATP; concentration not given, 72 h, retest 8-point duplicates; baseline: DMSO 0%, hyamine -100%, more negative, more toxic): -32.3%

Cc1cc(O)c2c(=O)c3c(O)cc(O)c4c5c(O)cc(O)c6c(=O)c7c(O)cc(CO)c8c1c2c(c34)c(c65)c78
CYP1A1 induction (BEAS-2B; enzyme activity, inducer, fluorogenic substrate imaging; 10 µM, 24 h; baseline: control): 1 fold

Fc1cccc(COc2ccc(Nc3ccnc4cc(-c5cccc(N6CCOCC6)c5)ccc34)cc2Cl)c1
TC50 (NIH 3T3; PrestoBlue; 2% FBS medium; 96 h): 11 µM

O=S(=O)(c1ccc(-c2ccc3nccc(Nc4ccc5[nH]nnc5c4)c3c2)cc1)N1CCOCC1
TC50 (NIH 3T3; cytotoxicity, PrestoBlue; 96 h, 2% FBS): > 20 µM

CCCCCCCCCCCC[N+](C)(C)Cc1ccccc1.[Br-]
cell viability (PC-12; CCK-8; 10 µM, dark or illumination): ~40%
